Published values gathered from unrelated publications.
Parts stem from different laboratories: compare values within a part only.

Sample 1 — method: protein-binding microarray; molecule type: double-stranded DNA, one strand shown; medium: in vitro; tested at: 250 nM; setting: 60-bp whole probe; added: salmon DNA 0.4 mg/ml; reference: random background probes; reading: higher = stronger binding; all sequences stand within: GCCTAGCAC … GTCTTGATTCGCTTGACGCTGCTG
Target: Interferon regulatory factor 7, full length, phosphomimetic (IRF7, Homo sapiens, UniProt Q92985, residues 1-503, S101K/S471D/S472D/S475D/S476D/S477D/S483D/S484D/S487D)
Construct (chain): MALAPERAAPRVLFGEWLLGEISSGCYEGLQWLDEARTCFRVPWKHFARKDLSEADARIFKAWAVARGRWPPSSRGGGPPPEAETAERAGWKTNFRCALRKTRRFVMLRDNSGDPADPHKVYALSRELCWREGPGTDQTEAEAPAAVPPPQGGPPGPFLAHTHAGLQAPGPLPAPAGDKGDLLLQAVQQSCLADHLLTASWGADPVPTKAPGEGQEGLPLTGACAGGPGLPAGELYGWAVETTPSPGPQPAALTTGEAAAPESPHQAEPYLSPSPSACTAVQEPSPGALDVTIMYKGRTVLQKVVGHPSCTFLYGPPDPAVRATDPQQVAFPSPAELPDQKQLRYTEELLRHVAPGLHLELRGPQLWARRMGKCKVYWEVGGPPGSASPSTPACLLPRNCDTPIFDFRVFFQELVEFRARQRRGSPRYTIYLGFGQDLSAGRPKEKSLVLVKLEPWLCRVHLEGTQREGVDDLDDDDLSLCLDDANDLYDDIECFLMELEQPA
Sequence	log fluorescence [z-score]
GACGAACTGGGGTATCGATACGTGCTA	-0.265
GACGAACTGAGATTCGAGACGTGCTAG	0.433
TCACAACTTTTTTTAATACTGTGCTAG	0.249
TTCATTTTGTTCATCATTGCGTGCTAG	0.627
TTAGGACTGGGTTTCGTTTAGTGCTAG	6.76
TTAGGTTCCGGTTTGGGTTAGTGCTAG	7.26
GACCGTCTCCTACTGCTGACGTGCTAG	-0.0209
TTAGAGTTCAGTATCGATTAGTGCTAG	0.36
GACGGTTCCCTTTTCATGACGTGCTAG	2.38
ATGCTGGTCACTCTCTGGGCGTGCTAG	-0.879
TTAGGTTTCGGGTATCGGGTAGTGCTA	6.66
TTAGATATCGGGTATCGATCAGTGCTA	0.254
TTAGGTTTAGGGTTTCGGTTAGTGCTA	5.55
ATAGGTTTCCTTATCCTTTAGTGCTAG	2.81
ACATGCTTCGAGATCTCCGAGTGCTAG	0.181
GACGGTCTCCTACTACTGACGTGCTAG	-0.334
GACGGTATCGGTTTTGGGACGTGCTAG	3.5
GACGGTTTCCACTATCGGGACGTGCTA	1.98
TTGTGTGTGTGTTTGTGTGTGTGCTAG	-0.561

Sample 2 — method: universal PBM; molecule type: double-stranded DNA, one strand shown; medium: in vitro; tested at: 600 nM; reading: higher = stronger binding
Target: Sal-like protein 4, full length isoform A (SALL4, Homo sapiens, UniProt Q9UJQ4, residues 1-1053)
Chain of UniProt Q9UJQ4 (whole entry, looked up): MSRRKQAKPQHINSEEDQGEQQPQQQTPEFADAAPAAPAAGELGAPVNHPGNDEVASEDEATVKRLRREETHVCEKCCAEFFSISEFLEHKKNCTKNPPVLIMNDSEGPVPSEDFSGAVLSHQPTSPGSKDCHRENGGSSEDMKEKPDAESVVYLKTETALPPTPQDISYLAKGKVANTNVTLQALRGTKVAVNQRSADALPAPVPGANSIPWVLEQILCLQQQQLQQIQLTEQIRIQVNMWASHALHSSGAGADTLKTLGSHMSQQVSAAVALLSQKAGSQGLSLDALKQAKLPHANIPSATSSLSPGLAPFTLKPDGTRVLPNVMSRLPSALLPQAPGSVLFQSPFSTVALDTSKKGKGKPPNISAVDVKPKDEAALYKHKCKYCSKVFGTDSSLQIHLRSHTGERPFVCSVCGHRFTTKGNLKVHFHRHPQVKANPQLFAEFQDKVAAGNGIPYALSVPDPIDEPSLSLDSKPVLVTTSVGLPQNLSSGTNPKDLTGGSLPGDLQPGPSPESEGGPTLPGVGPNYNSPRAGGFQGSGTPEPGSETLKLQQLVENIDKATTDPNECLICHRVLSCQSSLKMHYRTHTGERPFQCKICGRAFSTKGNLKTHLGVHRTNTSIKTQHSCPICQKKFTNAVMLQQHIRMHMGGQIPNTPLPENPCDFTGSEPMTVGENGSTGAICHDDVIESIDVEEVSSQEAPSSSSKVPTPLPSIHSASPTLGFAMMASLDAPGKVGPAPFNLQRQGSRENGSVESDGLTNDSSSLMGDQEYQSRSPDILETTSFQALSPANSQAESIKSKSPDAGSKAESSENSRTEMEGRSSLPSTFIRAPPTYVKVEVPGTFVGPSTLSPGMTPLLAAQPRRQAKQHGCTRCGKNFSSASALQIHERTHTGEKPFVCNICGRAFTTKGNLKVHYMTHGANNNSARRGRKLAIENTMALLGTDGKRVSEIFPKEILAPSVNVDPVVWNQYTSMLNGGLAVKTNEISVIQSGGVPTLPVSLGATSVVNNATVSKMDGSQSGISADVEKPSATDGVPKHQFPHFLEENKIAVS
Setting: 8-mer, flanks averaged, mean of replicates
Sequence	E-score
CGGAGAGC	-0.171
AGACTACG	-0.194
CACGGGAG	-0.134
GGATGCTA	-0.149
TCTAGAAA	0.128
AACACAAC	0.159
ACTGCTAA	0.105
GTAAACGA	0.141
TCATTAGA	0.177
CCCTGCTA	-0.208
AAACTATG	0.176
ACGAGCAT	0.111
TACCTGGA	-0.136
CGCAGACG	-0.181
AAAGTGGG	-0.029
TCGGAAAA	0.188
CACTAGTA	0.0478
ACAAGAAG	0.115
AGACACAA	0.179
ATTACGGA	0.0718
ACTATCCA	0.00889
AGGAATTA	0.269
GTAGAGAA	-0.00248
GAATGCTA	0.134
CACGGTAC	-0.25

Sample 3 — method: RNA Bind-n-Seq; molecule type: RNA; medium: in vitro; tested at: 200 nM; setting: whole 134-nt RNA, ends assumed; added: 150 mM LiCl; reference: input library; reading: higher = stronger binding; library: 7-deaza-guanosine replaces G
Target: Fragile X messenger ribonucleoprotein 1, C-terminal low-complexity region (Fmr1, Mus musculus, UniProt P35922)
All sequences stand within: GGGAGUUCUACAGUCCGACGAUC … UGGAAUUCUCGGGUGUCAAGG
Sequence	log2 enrichment
UUCCGGAAGAAGAAGCUCCGAUUUGGCCGGAGCCGGAUCCACGAGUGGGGUCUGUUUGCCAUGGAACCCAUUGCUGCUGACGAGAUGGUC	-1.15
CUCAAGUCCUGUGCUACACAUCGUAUGUACCGAAUCGGAAAAAGGUUUGGAGGAAAGUAUUAUGUUACGCCGUUCGGAUCUGCACUUCCA	-0.988
UAGGAGGUGGAUUUUGUUUAUUUUUUUAGCUCAUUUCCAGGGGUGGGAAUUUUUUUUUAAUAUGUGUCAUGAAUAAAGUUGUUUUUGAAA	0.466
AGUCCUGUGCUACACAUCGUAUGUACCGAAUCGGGAAAAAGGAAAAAGGAAAAAGGGGAAAGUAUUAUGUUACGCCGUUCGGAUCUGCAC	-0.651
GUCCUGUGCUACACAUCGUAUGUACCGAAUCGGGAAAAAAAGGGUGGGUUUUUUUGGGAAAGUAUUAUGUUACGCCGUUCGGAUCUGCAC	-1.6
UAACUUUAGAGGAGGAUCUGAUGGAUAUGGCAAUGGACGUGGAUUUGGGGAUGGCUAUAAUGGGUAUGGAGGAGGACCUGGAGGUGGCAA	0.381
GCAGGAAGUAAAAACGAAUGGAAAUGCUUCGGAUAGUGGCAGGGGUGGGGGUUGCUAAGGAAAGGGUGGGAUGGGAGUGGGUAAAGAGUU	1.41
AAGUCCUGUGCUACACAUCGUAUGUACCGAAUCGGUUUUGGGGUUUUGGGUUUUGGAAAGUAUUAUGUUACGCCGUUCGGAUCUGCACUU	-1.66

Sample 4 — method: RNA Bind-n-Seq; molecule type: RNA; medium: in vitro; tested at: 365 nM; reference: no-protein control; reading: higher = stronger binding
Target: RNA binding protein fox-1 homolog 2, RRM domain, GST-SBP tag (RBFOX2, Homo sapiens, UniProt O43251-10, residues 100-194)
Setting: natural RNA segment, single round, ends assumed
All sequences stand within: GGGAGUUCUACAGUCCGACGAUC … UGGAAUUCUCGGGUGCCAA
Target sequence (chain): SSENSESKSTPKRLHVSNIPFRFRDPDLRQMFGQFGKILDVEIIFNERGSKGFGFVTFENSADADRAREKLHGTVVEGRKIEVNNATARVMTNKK
Sequence	RBNS enrichment (R)
UUCUCUUUUGUUGUCUUAUCAAAGUUUAAUGGAGACACUUUCAUAAUUGUUGUUGUGUGUACAUUUGAUUUUCAUAAAGAUGGUAGUAAGUCAAUGCAUUAACCCUCAUC	0.369
CGCCGGAGAAUUACCAUCCCCCCGCACCUCGCCUAUGGGGAGAAUGGAACUGGUAGGGGCGUUCCCCAGCCACCACCUCAGCUCCUCCUCCGAACUGCCCAUUGUGUCUA	0.376
GUAUAUGUCUGUCUUUCUCAUUAGAUUAUACGCUCCUUGUGGGCAGGGUCUGUCUUUUUCACCUUUGUACCUUUCAUGGCAUCUAGCAUAGUGCUUUGCACAUAGUCGUC	0.838
CUCCACGUGGCCCACAGGCCUGACCACAGGGGCUGUGGGUCCUGCGUCCCCUUCCUCGGGUGAGCCUGGCCUGUCCCGUUCAGCCGUUGGGCCCAGGCUUCCUCCCCUCC	0.261
UCACUGCUUCAGUCAGCCUUCAUUAGCACCAAAGACUCCAUGAAGGUCGUCCCCCACACAAACAUACCCCUUGCGCACCUUCUGCCUACUUUGAGCCGGAUCUGGCCUGU	0.389
GGGAGGGGAGGGUGUUCUUCCCAACCUAGGGUCCCAGCUGUCUUCACCUGUUCUUACCCACGUCCCUCCUCAAUAAAGAAGCCAGUCAGGCGUGGUUAUAUGUUGCUACG	0.244
AACCAUUUCCAUGCUCAGCGUGGUUCGCUGUGUGCCACGUGUGGUCUCCCAGUGACCGGCCGCUGUGUGUCCGCUCUGGGCCGACGCUUCCAUCCAGACCACUUCACCUG	0.291
UUCAGAUAUCCAAGCAGAAUUUUAUUAUGGACACCUUGUAAUGAAUUCAAAUCGUGUGACAGCAAACGGGAUAAAUGGCCCCUUCUCACCCAGUUCCGCUCAGGGCCAUA	0.349

For quick reference, copied from above (sample 2):
Sequence	E-score
TCTAGAAA	0.128
AGACACAA	0.179
AGGAATTA	0.269
TCGGAAAA	0.188
ATTACGGA	0.0718
GTAGAGAA	-0.00248
ACTGCTAA	0.105
TACCTGGA	-0.136
